{"data": "Experimental data of several laboratories", "note": "Each line is one published result; not all experiments were run side by side."}
{"SMILES": "COc1cc2nccc(Oc3ccc(NC(=O)c4cc5c(n(-c6ccccc6)c4=O)CCCC5=O)nc3)c2cc1OC", "test": "CTCAE", "system": "patients with relapsed/refractory AML", "conditions": "oral, 6 mg once daily", "endpoint": "patients with TEAEs grade ≥3", "value": "100%"}
{"SMILES": "COc1cc(Nc2ncc3c(n2)-c2ccc(Cl)cc2C(c2c(F)cccc2OC)=NC3)ccc1C(=O)O", "test": "measured: Diarrhea, grade 3", "system": "cancer patients, phase 1/2", "conditions": "oral, dose not given, added: pembrolizumab", "endpoint": "patients with adverse event", "value": "4%"}
{"SMILES": "COc1ccc([C@@H](O)c2cc(-c3ncnc4cc(N5CCOCC5)ccc34)c(F)cc2Cl)nn1", "test": "measured: Fatigue", "system": "locally advanced rectal cancer patients", "conditions": "dose not given, all dose groups, added: capecitabine plus radiotherapy", "endpoint": "patients with TEAE", "value": "47%"}
{"SMILES": "CC(C)C[C@H](NC(=O)CNC(=O)c1cc(Cl)ccc1Cl)B(O)O", "test": "measured: Hypophosphataemia, all grades", "system": "newly diagnosed multiple myeloma patients", "conditions": "oral, dose not given, maintenance phase, new onset, cycle 17 or later", "endpoint": "patients with adverse event", "value": "17%"}
{"SMILES": "FC(F)(F)c1ccc(CNc2ccc(Cc3c[nH]c4ncc(Cl)cc34)cn2)cn1", "test": "measured: at least 1 adverse event", "system": "patients with TGCT", "conditions": "oral, 1000 mg/day, all grades", "endpoint": "patients with treatment-related adverse event", "value": "100%"}
{"SMILES": "C=CC(=O)Nc1cc(Nc2nccc(-c3cn(C)c4ccccc34)n2)c(OC)cc1N(C)CCN(C)C", "test": "measured: Fatigue grade ≥3", "system": "EGFR-mutant MET-altered NSCLC", "conditions": "oral, study", "endpoint": "patients with treatment-related AEs", "value": "0%"}
{"SMILES": "CCO[C@H]1CCN(Cc2c(OC)cc(C)c3[nH]ccc23)[C@H](c2ccc(C(=O)O)cc2)C1", "test": "measured: Pyrexia", "system": "PNH patients, active haemolysis", "conditions": "oral, 200 mg twice daily, extension phase", "endpoint": "patients with adverse event", "value": "0%"}
{"SMILES": "Cc1cc(-c2nnc(N)nc2-c2ccc(F)cc2)cc(Cl)n1", "test": "measured: Rash", "system": "IO-naive mCRPC patients, male", "conditions": "oral, dose not given, treatment-related, grade 1", "endpoint": "patients with immune-mediated AE", "value": "0%"}
{"SMILES": "O=C(Nc1nc2cccc(-c3ccc(CN4CCS(=O)(=O)CC4)cc3)n2n1)C1CC1", "system": "rheumatoid arthritis patients", "conditions": "oral, 100 mg twice daily, 4 weeks, regardless of relatedness", "endpoint": "patients with noninfective cystitis", "value": "0%"}
{"SMILES": "C=CC(=O)NC1CCN(c2ncc3ncnc(Nc4ccc(Oc5ccc6c(c5)ncn6C)c(C)c4)c3n2)CC1", "system": "male patients", "conditions": "oral, dose not given, on-treatment adverse events", "endpoint": "patients with Headache", "value": "0%"}
{"SMILES": "C[C@@H](Nc1cc(F)cc(F)c1)c1cc(C(=O)N(C)C)cc2c(=O)cc(N3CCOCC3)oc12", "test": "measured: Rash", "system": "advanced solid tumour patients", "conditions": "oral, dose not given, dose finding", "endpoint": "patients discontinuing for AE", "value": "3.2%"}
{"SMILES": "Cc1cc(NC2CCN(C(=O)OC3CCN(C(=O)/C=C/CN(C)C)C3)CC2)n2ncc(C(C)C)c2n1 (stereo not shown)", "test": "Phase I dose escalation CTCAE v4.0, measured: dermatitis acneiform", "system": "patients with advanced solid tumours", "conditions": "dose not given, QD dosing grade 3 or higher", "endpoint": "patients with adverse event", "value": "0%"}
{"SMILES": "CNC(=O)c1ccc(-c2cnc3ncc(Cc4ccc5ncccc5c4)n3n2)cc1F", "test": "measured: Headache, all grades", "system": "hepatocellular carcinoma patients", "conditions": "oral, 600 mg twice daily, expansion cohort, any causality", "endpoint": "patients with adverse event", "value": "0%"}
{"SMILES": "CCOc1c([C@H](C)n2nc(C)c3c(N)ncnc32)cc(Cl)c(F)c1[C@@H]1CNC(=O)C1", "test": "measured: heart rate > 100 bpm", "system": "previously treated B-cell malignancy", "conditions": "oral, 30 mg once daily", "endpoint": "patients with high heart rate", "value": "7.7%"}
{"SMILES": "C[C@@H](c1ccc2nccn2c1)n1nnc2ncc(-c3cnn(C)c3)nc21", "test": "measured: Thrombocytopenia grade ≥3", "system": "EGFR-mutant MET-altered NSCLC", "conditions": "oral, dose not given, study", "endpoint": "patients with treatment-related AEs", "value": "0%"}
{"SMILES": "NC(=O)N1c2ccccc2C=Cc2ccccc21", "system": "male patients", "conditions": "oral, dose not given, treatment-related adverse events", "endpoint": "patients with Diarrhea", "value": "7%"}
{"note": "A few entries again:"}
{"SMILES": "Cc1cc(NC2CCN(C(=O)OC3CCN(C(=O)/C=C/CN(C)C)C3)CC2)n2ncc(C(C)C)c2n1 (stereo not shown)", "test": "Phase I dose escalation CTCAE v4.0, measured: dermatitis acneiform", "system": "patients with advanced solid tumours", "conditions": "dose not given, QD dosing grade 3 or higher", "endpoint": "patients with adverse event", "value": "0%"}
{"SMILES": "CNC(=O)c1ccc(-c2cnc3ncc(Cc4ccc5ncccc5c4)n3n2)cc1F", "test": "measured: Headache, all grades", "system": "hepatocellular carcinoma patients", "conditions": "oral, 600 mg twice daily, expansion cohort, any causality", "endpoint": "patients with adverse event", "value": "0%"}
